Published values from different studies.
Each numbered part is a random draw from the data of one study; scales do not carry over between parts.

Block 1 — technique: RNA Bind-n-Seq; molecule type: RNA; matrix: in vitro; concentration: not given; baseline: input RNA pool; direction: higher = stronger binding
Target: RING finger protein unkempt homolog, zinc fingers 1-6, GST-SBP tag (UNK, Homo sapiens, UniProt Q9C0B0, residues 30-357)
Setting: RNA with constant flanks, human and mouse sites, ends assumed
Target sequence (chain): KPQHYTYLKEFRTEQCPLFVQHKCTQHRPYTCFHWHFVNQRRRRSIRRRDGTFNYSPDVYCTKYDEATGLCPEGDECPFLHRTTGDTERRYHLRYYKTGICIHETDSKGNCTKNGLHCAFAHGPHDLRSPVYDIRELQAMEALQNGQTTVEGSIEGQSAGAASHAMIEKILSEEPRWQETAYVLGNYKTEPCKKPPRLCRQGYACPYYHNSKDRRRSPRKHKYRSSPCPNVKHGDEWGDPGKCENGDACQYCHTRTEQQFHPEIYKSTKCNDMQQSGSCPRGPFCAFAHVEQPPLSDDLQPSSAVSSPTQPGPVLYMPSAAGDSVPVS
`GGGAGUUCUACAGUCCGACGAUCAAAGAAGACAUUGCCAUGUGGGAAGUAAAUGAAGCAUUCAGUGUGGUUGUGCUAGCCAACAUUAAAAUGCUGGAGAUUGACCCCCAAAAAGUAAAUAUCCACGGAGGAGCUGUUUCUCUGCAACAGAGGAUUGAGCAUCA` gave a bound/input enrichment of 0.186 ratio.
`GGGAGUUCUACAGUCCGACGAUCCAUAGUGAACGAGAAAUGAGGAACACACUAGAAAAAUUUACUGCAAGCAUCCAGCGUUUAAUAGAGCAAGAAGAAUAUUUGAAUGUCCAAGUUAAGGAACUUGAAGCUAAUGUACUUGCUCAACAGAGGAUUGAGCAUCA` gave a bound/input enrichment of 2.45 ratio.
For `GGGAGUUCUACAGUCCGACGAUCCUUAUGCCCUCCAGUCUGCAGACCCCUCAGCCCCAGGAGCAGAAUGGGAUUUUAGACUGGCUUAGGAAGCUGCGCUUGCACAAGUAUUACCCUGUCUUUAAACAGCUCACCAUGGAGAAGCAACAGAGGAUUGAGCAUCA`, the bound/input enrichment was 0.227 ratio.
`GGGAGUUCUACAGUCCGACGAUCCUGGACCUCAACUGUGACGGGCAGCUAGAUUUCCAAGAGUUUCUCAACCUCAUUGGUGGCUUAGCUAUAGCGUGCCAUGAUUCUUUCAUCCAAACUUCCCAGAAGCGAAUCUAAUCCUCUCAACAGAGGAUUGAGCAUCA` gave a bound/input enrichment of 0.292 ratio.
`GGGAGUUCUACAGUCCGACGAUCAGAUUCAAAGUUGUCAAGGGAUUCAUGGAAGACGAAGGUCGGCAGCGAACCACCAAGUACAUUUCCUGCGUGUUUGCAGAGGAGAGCGACCUAAGCCGGCAGUACCAAAGAGAGAAGGCCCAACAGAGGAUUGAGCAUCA` gave a bound/input enrichment of 0.16 ratio.
`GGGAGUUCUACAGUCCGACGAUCAGGCCAAAUCAGAACCGGUGCAUAGUAAUACUGCGUGAGAUAUCGGAGUCUACCCCCGUGGAAGAAGUAGAAGCACUAUUUAAAGGAGAUAAUUUACCAAAAUUUAUAAACUGUGAAUUUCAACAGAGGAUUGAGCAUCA` has a bound/input enrichment of 0.979 ratio.
With `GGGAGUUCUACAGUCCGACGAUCCGCGGAUUUUUUUUGAGGAUUCCCCCCCUCACCUUUUUUCAUUUUUCUCCCCUCGGGGCUCUUUUGUGACUCUCCCCAACCCCAACCCUCCGCCUUUAUGUUCGCCCAGACCUCCACCCGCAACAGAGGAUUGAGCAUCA` the bound/input enrichment was 2.08 ratio.
The bound/input enrichment of `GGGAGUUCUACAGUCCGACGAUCGGAUACGGCAACCCCCGGAACUCACCAGGCCUGCUGGUCUCACCUGGUAACCUGAACAAGAAUAUACAAGCCAAAUCUCCUCCCCCUAUGAAUCUAGGAAUGAAUAAUCGUAAGCCAGAUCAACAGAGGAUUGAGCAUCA` is reported as 0.72 ratio.
`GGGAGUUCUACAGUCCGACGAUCGCCAGUGCAAAGUAGCCAGAAGGCUGCCACGCCAGAGCGGCACAGAGUUCCCAAGUGUUCUUAGUUUUCGUGUCCGAGCGUCUUGGGCCGCUCUCUCCGGAGAACUGCGACCAGGAUGUGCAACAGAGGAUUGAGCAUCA` has a bound/input enrichment of 0.0953 ratio.
The bound/input enrichment of `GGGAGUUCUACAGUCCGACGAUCCAACAAUACUCAGGGAGGAGACUCCCAUAAUGGAAACUUUGUCAUUCCCCAGAUACAAUGUAGCUGAGCUUGUGGUUCAUAUUCGCAAUAAAUUAUUAACAGGAGCAGAUGGCAAAAACCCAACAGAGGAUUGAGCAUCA` is reported as 0.248 ratio.
With `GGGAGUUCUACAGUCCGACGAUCCCGUCUCAGCUUACCCACUCUUGACUCCUUUGAGCCUUUCAGAGGGGCAGUUUCUGGUAGUAGCAGCUUUUAUACUUUCACGGAAUUCCUUCAGUCCAGAGAGUUCUGGCAGCAGGCCGUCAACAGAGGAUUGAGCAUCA` the bound/input enrichment was 0.161 ratio.

Block 2 — technique: protein-binding microarray; molecule type: double-stranded DNA, one strand shown; matrix: in vitro; concentration: 2540 nM top; setting: 60-bp whole probe; with: salmon DNA 0.4 mg/ml; baseline: random background probes; direction: higher = stronger binding; shared flanks, not repeated: GCCTAGCAC … GTCTTGATTCGCTTGACGCTGCTG
Target: Interferon regulatory factor 3, full length, phosphomimetic (IRF3, Homo sapiens, UniProt Q14653, residues 1-427, S386D/S396D/S398D/S402D/T404D/S405D)
Chain of UniProt Q14653 (whole entry, unmodified, looked up): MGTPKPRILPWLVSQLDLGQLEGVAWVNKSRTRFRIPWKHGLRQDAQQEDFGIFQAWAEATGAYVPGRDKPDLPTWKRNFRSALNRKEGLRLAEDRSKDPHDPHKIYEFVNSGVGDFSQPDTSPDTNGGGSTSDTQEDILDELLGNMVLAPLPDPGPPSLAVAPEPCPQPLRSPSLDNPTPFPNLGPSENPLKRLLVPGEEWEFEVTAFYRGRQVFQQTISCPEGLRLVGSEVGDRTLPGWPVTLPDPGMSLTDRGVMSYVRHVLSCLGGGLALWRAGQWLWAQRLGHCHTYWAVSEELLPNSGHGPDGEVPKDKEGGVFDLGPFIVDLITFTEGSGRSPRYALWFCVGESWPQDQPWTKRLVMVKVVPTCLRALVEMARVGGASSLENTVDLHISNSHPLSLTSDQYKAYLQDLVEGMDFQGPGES
Under “fitted relative affinity”, `TTCGGTTTCGACACTGGGTTAGTGCTA` is recorded as 3.87 z-score.
`TTAGGTTTCGGTTCCGGCTAGTGCTAG`: “fitted relative affinity” 10.7 z-score.
`TCTCTTTCCAACTCTGTTTTCGTGCTA` — result for “fitted relative affinity”: 4.43 z-score.
`TTAGATATCGGGTTTCGAATAGTGCTA` — result for “fitted relative affinity”: 1.45 z-score.
`GACGATTTCAGACAGGAGACGTGCTAG` — result for “fitted relative affinity”: 0.686 z-score.
Under “fitted relative affinity”, `TTAGGTATCGGTAACGGTTAGTGCTAG` is recorded as 1.72 z-score.
`TTAGCTATCGGACTGGGTTAGTGCTAG` — result for “fitted relative affinity”: -0.265 z-score.
Under “fitted relative affinity”, `GACGGATCCGGTTTCGGGACGTGCTAG` is recorded as 4.25 z-score.
Under “fitted relative affinity”, `ACTTTTTTTTTTCCCTGAAAGTGCTAG` is recorded as 2.15 z-score.
`TTAGGACTGCTAATGCTTTAGTGCTAG`: “fitted relative affinity” -0.54 z-score.
Under “fitted relative affinity”, `GACGGTTTCGGTCTCGTGACGTGCTAG` is recorded as 8.83 z-score.
For `TTAGATATCATACTGGATTAGTGCTAG`, “fitted relative affinity” read 0.355 z-score.
`GGACCGCGACCTGCCAAGTCGTGCTAG` — result for “fitted relative affinity”: -0.705 z-score.
`TCACCTCTGGGCTGTTTGACTGTGCTA`: “fitted relative affinity” -0.184 z-score.
`TCAGTTTTTCATTTTTTACTGTGCTAG`: “fitted relative affinity” 1.94 z-score.
Under “fitted relative affinity”, `TTGCTTCTATAGGCTAGAATCGTGCTA` is recorded as -0.297 z-score.
`TTAGGTCTCCTTTTACTTTAGTGCTAG` — result for “fitted relative affinity”: 4.65 z-score.
For `TTAGGTATCCTTTTCCTTTAGTGCTAG`, “fitted relative affinity” read 8.36 z-score.
`TCATTTTGCCCTATTTAACTGTGCTAG` — result for “fitted relative affinity”: 2.21 z-score.
`TTAGATCCCAGTCTCGATTAGTGCTAG`: “fitted relative affinity” 1.16 z-score.
Under “fitted relative affinity”, `AGAAACTGTGAGGAGGGGAAGTGCTAG` is recorded as 0.0102 z-score.
For `GACGATTTCAGCTTCGAGACGTGCTAG`, “fitted relative affinity” read 0.847 z-score.
For `GACGGACGGGGTTTCGGGACGTGCTAG`, “fitted relative affinity” read 1.1 z-score.
For `TTAGATTCCAGTTGCGATTAGTGCTAG`, “fitted relative affinity” read 2.48 z-score.
`TGAGGTTTCGGACTGGGTTAGTGCTAG`: “fitted relative affinity” 3.56 z-score.

Block 3 — technique: RNA Bind-n-Seq; molecule type: RNA; matrix: in vitro; concentration: 365 nM; baseline: no-protein control; direction: higher = stronger binding
Target: RNA binding protein fox-1 homolog 2, RRM domain, GST-SBP tag (RBFOX2, Homo sapiens, UniProt O43251-10, residues 100-194)
Setting: natural RNA segment, single round, ends assumed
Construct (chain): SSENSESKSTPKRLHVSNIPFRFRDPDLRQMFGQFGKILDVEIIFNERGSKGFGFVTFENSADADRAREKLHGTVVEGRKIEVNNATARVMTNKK
Under “RBNS enrichment (R)”, `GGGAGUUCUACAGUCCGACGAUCGGGCAAUGCAGGAUCCAAAUCCUCAUCUUACUUUCCCGACCUUAAGGAUGUAGCUGCUGCUUGUCCUGUUCAAGUUGCUGGAGCAGGGGUCAUGUGAGGCCAGGCCUGUAUGGAAUUCUCGGGUGCCAA` is recorded as 0.352.
`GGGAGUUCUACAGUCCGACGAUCUGUCCCAGACUUCCUUUGUCUUCAACAACCUUCUGCAAGAAAACCAAGGGCCUGAAUUUUAACUUCCUGUGCACAAUGUACCUUUUGAGAUGAUUCGAAGGGCCUUUCACUGGAAUUCUCGGGUGCCAA` — result for “RBNS enrichment (R)”: 0.558.
Under “RBNS enrichment (R)”, `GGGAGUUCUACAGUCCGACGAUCGCCUGUGGAGACCUGUGAAGAGCGGCUCCUGGACUUUAGCUGCCCUCUCCGUCCCAGAGGCCACGAUCCAUCGGGCUGUUCUGAGGACUUCAAGGCAUCUCUUCCCCAUUUGGAAUUCUCGGGUGCCAA` is recorded as 0.347.
`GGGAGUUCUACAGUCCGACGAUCAAAGAACAGUGUGACACCAGAAGCCAAGAGAUGGUUUUUACUAACAACAGCUUUGAUGAGUUCCUAUUAAGGUCGUAUUGUGUAUUGUGCCAAAUUUUCCACCCAGUAUAUGGAAUUCUCGGGUGCCAA`: “RBNS enrichment (R)” 0.305.
For `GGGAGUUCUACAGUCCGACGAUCUCCUGACCCUCAGCUGGCCCUGCCCAGCCACCCUGGACGUGACCGUAUCCCUCUGCCACACCCCAGGCCCUGCGAGGGGCUAUCGAGAGGAGCUCACUGUGGGAUGGGGUUGGAAUUCUCGGGUGCCAA`, “RBNS enrichment (R)” read 0.216.
Under “RBNS enrichment (R)”, `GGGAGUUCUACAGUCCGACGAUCUCCUGUUUAUUAGAGAGUAUGCUAAUAAAAGUCCUUGUAAUAGCUCACAGCCACCUAAGUGCGCGGUGUUUUGUUGUUUGACUGUGUUAGAGAAGUUUGAAUGUUUGUGUUGGAAUUCUCGGGUGCCAA` is recorded as 3.32.
`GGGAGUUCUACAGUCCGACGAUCGAAGGCUGUCAGCUGCUCAGCCUGCUUUGAGCCUCAGUGAGAAGUCCUUCCGACAGGAGCUGACUCAUGUCAGGAUGGCAGGCCUGGUAUCUUGCUCGGGCCCUAGCUGUUGGAAUUCUCGGGUGCCAA` — result for “RBNS enrichment (R)”: 0.805.
`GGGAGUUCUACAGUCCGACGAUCAUGGCCCACUUUGACCACUAACAACAUCAGAAUUAUCUACAUCAAUUUCAUUGAGCCAUUGGUGAAUGAAGACACCCAUCACUUGUCAUGUUGGUUUCCAACAGUCCUUUUGGAAUUCUCGGGUGCCAA`: “RBNS enrichment (R)” 0.335.
`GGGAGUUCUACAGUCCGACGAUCUUGAGGAGGGACCAUGAGAACAGAAAUUACCUUAUGAAAAGCUACUUCUGUUCCUGCUUUCCCUCUCACGUAUUGACGGUUUAUUUCUUUGACCUCCCAGAGGGCUGAACUGGAAUUCUCGGGUGCCAA`: “RBNS enrichment (R)” 0.426.

Block 4 — technique: RNA Bind-n-Seq; molecule type: RNA; matrix: in vitro; concentration: 20 nM; setting: 6-mer, flanks averaged, single round; with: 150 mM LiCl; baseline: input library; direction: higher = stronger binding
Target: TAR DNA-binding protein 43, full length, His tag (TARDBP, Homo sapiens, UniProt Q13148, residues 1-414)
`ACCUAU` — result for “6-mer enrichment (R)”: 0.907.
For `UACCCU`, “6-mer enrichment (R)” read 1.01.
`AGAGGU` — result for “6-mer enrichment (R)”: 1.06.
`ACAUAU`: “6-mer enrichment (R)” 0.906.
For `AGUCAG`, “6-mer enrichment (R)” read 0.877.
For `UUGGGU`, “6-mer enrichment (R)” read 1.29.
For `CUGCUG`, “6-mer enrichment (R)” read 0.955.
Under “6-mer enrichment (R)”, `UCCAGA` is recorded as 0.846.
For `UACGGG`, “6-mer enrichment (R)” read 0.99.
`GCCCCC`: “6-mer enrichment (R)” 1.41.
For `CUAAAC`, “6-mer enrichment (R)” read 0.804.
`UGCGCG` — result for “6-mer enrichment (R)”: 1.14.
`UGACGG` — result for “6-mer enrichment (R)”: 0.966.
`CGUUUG`: “6-mer enrichment (R)” 1.06.
`CGAACA`: “6-mer enrichment (R)” 0.788.
Under “6-mer enrichment (R)”, `GUCCGC` is recorded as 0.922.
`CCCUGU`: “6-mer enrichment (R)” 1.11.
`AACCCG` — result for “6-mer enrichment (R)”: 0.885.
For `GAUGUC`, “6-mer enrichment (R)” read 0.939.
Under “6-mer enrichment (R)”, `AGCGAC` is recorded as 0.837.
`CUUAAU`: “6-mer enrichment (R)” 0.935.
Under “6-mer enrichment (R)”, `GACGUA` is recorded as 0.912.

Repeated from above (block 4):
`GCCCCC`: “6-mer enrichment (R)” 1.41.
For `CUAAAC`, “6-mer enrichment (R)” read 0.804.
`UGCGCG` — result for “6-mer enrichment (R)”: 1.14.
`UGACGG` — result for “6-mer enrichment (R)”: 0.966.
`CGUUUG`: “6-mer enrichment (R)” 1.06.
